Published values collected from several papers.
Every numbered part comes from another study and shows a few of its results, in no order. Positions count from the first letter of the parent shown.

Block 1 — target: CCNF, cyclin fold, Cln2 fusion (human); technique: yeast growth competition, sequencing; sample: yeast; notes: strong parent motif; reference: not given; reading: higher = stronger binding; quantity: normalised enrichment score
Parent: viral docking peptide; TSVRRALFTGGSD; partner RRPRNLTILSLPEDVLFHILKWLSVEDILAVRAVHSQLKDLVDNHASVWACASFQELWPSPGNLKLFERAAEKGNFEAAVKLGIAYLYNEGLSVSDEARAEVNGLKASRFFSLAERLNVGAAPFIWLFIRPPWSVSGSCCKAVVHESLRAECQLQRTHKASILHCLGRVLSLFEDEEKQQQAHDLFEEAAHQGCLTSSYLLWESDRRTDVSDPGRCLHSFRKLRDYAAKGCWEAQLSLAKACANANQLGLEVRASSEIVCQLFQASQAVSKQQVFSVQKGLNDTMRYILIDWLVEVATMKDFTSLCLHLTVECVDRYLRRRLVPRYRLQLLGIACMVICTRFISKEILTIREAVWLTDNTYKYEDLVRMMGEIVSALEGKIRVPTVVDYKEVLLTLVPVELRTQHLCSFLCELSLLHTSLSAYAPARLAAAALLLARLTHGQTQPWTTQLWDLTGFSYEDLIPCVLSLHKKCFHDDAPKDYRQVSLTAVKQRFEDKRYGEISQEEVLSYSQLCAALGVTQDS
Substitution = F8D; result = 1.18
Substitution = S12G; result = 8.06
Substitution = R5N; result = 0.232
Substitution = R5L; result = 0.379
Substitution = A6K; result = 8.62
Substitution = G11W; result = 8.8
Substitution = T9R; result = 8.66
Substitution = G10A; result = 8.39
Substitution = G11S; result = 8.08
Substitution = L7S; result = -0.544
Substitution = T9P; result = 8.78
Substitution = G10K; result = 8.5
Substitution = S2R; result = 8.71
Substitution = R5F; result = 0.489
Substitution = A6F; result = 2.93
Substitution = G11Y; result = 8.26
Substitution = S2W; result = 7.17
Substitution = G11R; result = 8.4

Block 2 — target: inorganic phosphate, free oxyanion; technique: microfluidic competitive inhibition; sample: in vitro, cell-free expressed; tested at: not given; reading: lower = stronger binding; quantity: phosphate dissociation constant
Notes: derived from inhibition constants, unchanged parent 615000 nM
Parent: PafA, mature enzyme, eGFP fusion (Elizabethkingia meningoseptica, UniProt Q9KJX5); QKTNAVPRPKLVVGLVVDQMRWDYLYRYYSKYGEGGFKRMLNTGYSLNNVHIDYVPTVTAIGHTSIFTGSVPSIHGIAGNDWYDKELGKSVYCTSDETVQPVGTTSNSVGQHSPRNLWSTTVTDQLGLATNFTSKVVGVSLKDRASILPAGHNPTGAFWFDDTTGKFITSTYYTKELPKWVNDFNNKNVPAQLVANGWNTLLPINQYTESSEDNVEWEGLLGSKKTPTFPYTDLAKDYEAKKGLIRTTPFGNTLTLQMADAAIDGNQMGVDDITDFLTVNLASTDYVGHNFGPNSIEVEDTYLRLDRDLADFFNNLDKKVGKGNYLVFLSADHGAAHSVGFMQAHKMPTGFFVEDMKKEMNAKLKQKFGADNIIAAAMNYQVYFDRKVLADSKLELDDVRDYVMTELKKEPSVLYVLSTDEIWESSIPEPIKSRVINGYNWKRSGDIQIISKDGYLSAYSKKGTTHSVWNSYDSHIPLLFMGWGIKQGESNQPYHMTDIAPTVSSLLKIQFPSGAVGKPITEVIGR
Substitution = T200V; result = 636 µM
Substitution = S505G; result = 578 µM
Substitution = S490V; result = 453 µM
Substitution = I520G; result = 354 µM
Substitution = W423G; result = 661 µM
Substitution = G292V; result = 534 µM
Substitution = Y54V; result = 105 µM
Substitution = L126G; result = 398 µM
Substitution = E209G; result = 528 µM

Block 3 — effect on: binding; technique: phage display NGS; molecule type: peptide; reference: input library; quantity: minimum log2 enrichment ratio
Target: UDP-N-acetylglucosamine--peptide N-acetylglucosaminyltransferase 110 kDa subunit (OGT, Homo sapiens, UniProt O15294)
Construct (O15294 1-1046): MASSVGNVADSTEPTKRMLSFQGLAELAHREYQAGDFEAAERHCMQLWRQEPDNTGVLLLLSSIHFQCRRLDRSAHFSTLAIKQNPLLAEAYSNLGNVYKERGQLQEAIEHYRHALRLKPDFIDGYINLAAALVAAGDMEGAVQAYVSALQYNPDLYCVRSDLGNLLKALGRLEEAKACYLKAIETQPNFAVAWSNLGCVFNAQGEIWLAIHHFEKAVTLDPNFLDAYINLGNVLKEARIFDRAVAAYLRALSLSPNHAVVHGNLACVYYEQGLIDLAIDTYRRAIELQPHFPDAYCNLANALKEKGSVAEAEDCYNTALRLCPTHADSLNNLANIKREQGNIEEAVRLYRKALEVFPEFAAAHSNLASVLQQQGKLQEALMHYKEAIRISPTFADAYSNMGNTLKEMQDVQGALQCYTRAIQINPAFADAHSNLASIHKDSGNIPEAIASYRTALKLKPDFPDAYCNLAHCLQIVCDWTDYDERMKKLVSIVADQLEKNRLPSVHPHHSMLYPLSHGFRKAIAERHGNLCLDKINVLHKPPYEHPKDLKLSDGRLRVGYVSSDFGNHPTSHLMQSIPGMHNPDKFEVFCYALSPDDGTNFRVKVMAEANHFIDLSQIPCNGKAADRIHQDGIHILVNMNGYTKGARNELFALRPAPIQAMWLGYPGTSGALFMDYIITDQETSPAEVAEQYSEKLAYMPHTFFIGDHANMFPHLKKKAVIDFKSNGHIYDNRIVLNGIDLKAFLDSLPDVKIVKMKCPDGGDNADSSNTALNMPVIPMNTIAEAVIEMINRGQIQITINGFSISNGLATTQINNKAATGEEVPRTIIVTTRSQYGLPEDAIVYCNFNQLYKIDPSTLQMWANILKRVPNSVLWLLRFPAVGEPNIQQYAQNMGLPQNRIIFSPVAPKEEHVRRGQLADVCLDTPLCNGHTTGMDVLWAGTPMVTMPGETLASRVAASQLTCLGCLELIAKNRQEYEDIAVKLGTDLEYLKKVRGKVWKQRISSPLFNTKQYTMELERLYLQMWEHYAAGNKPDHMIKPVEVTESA
Sequence = HIHKRDTHWAWYTIG; result = 1.69
Sequence = SMNLRHHDHNVHPRV; result = 2.69
Sequence = YLPQYQIIPKAVDYS; result = 4.47
Sequence = HPTWPVEHHHDKIYS; result = 2.82
Sequence = HKSHTPHNMDWNTVR; result = 1.65
Sequence = WGPQHMRHHYAHQHT; result = 2.52

Block 4 — technique: protein-binding microarray; molecule type: double-stranded DNA, one strand shown; sample: in vitro; tested at: 250 nM; notes: 60-bp whole probe; together with: salmon DNA 0.4 mg/ml; reference: random background probes; reading: higher = stronger binding; quantity: log fluorescence; all sequences stand within: GCCTAGCAC … GTCTTGATTCGCTTGACGCTGCTG
Target: Interferon regulatory factor 5, full length, phosphomimetic (IRF5, Homo sapiens, UniProt Q13568-2, residues 1-514, K96S/S451D/S453D/S456D/S462D)
Strand = GACGATATCGGGTTTCGAGACGTGCTA; result = 3.72 z-score
Strand = GACGATATCGGGTAACGAGACGTGCTA; result = 1.99 z-score
Strand = TTAGAACTGGCGTTTCGATTAGTGCTA; result = 4.2 z-score
Strand = GACGAACTGTGTATCGAGACGTGCTAG; result = 0.725 z-score
Strand = TCACTTCTGGTGCTCATCTGGTGCTAG; result = 0.464 z-score
Strand = TTAGGTTTCCTTATCTTTTAGTGCTAG; result = 1.04 z-score
Strand = GACCGACTGGGTATCGGGACGTGCTAG; result = 0.476 z-score
Strand = CTAGGACTGGGACTGGGTTAGTGCTAG; result = -0.528 z-score

Mixed results
Molecule = PhoQ, residues 284 288 289 292 302 303 AQGLTV; target = PhoP, residues 12 14 15 18 19 SYFRT (Escherichia coli, UniProt P23836); assay = Sort-seq, refers to: YFP reporter; test system = E. coli; setting = PhoQ-PhoP variant library, together with: 10 µM Mg2+; how to read = reference: high Mg2+ state, higher = stronger signaling; quantity = fold induction; result = 0.782

For quick reference, copied from above (block 1):
Substitution = A6K; result = 8.62
Substitution = G10A; result = 8.39
Substitution = F8D; result = 1.18
Substitution = T9P; result = 8.78
Substitution = S2R; result = 8.71
